Published values from different studies.
Each numbered part is a random draw from the data of one study; scales do not carry over between parts.
Sequence of UniProt P00519 (whole entry, unmodified, looked up): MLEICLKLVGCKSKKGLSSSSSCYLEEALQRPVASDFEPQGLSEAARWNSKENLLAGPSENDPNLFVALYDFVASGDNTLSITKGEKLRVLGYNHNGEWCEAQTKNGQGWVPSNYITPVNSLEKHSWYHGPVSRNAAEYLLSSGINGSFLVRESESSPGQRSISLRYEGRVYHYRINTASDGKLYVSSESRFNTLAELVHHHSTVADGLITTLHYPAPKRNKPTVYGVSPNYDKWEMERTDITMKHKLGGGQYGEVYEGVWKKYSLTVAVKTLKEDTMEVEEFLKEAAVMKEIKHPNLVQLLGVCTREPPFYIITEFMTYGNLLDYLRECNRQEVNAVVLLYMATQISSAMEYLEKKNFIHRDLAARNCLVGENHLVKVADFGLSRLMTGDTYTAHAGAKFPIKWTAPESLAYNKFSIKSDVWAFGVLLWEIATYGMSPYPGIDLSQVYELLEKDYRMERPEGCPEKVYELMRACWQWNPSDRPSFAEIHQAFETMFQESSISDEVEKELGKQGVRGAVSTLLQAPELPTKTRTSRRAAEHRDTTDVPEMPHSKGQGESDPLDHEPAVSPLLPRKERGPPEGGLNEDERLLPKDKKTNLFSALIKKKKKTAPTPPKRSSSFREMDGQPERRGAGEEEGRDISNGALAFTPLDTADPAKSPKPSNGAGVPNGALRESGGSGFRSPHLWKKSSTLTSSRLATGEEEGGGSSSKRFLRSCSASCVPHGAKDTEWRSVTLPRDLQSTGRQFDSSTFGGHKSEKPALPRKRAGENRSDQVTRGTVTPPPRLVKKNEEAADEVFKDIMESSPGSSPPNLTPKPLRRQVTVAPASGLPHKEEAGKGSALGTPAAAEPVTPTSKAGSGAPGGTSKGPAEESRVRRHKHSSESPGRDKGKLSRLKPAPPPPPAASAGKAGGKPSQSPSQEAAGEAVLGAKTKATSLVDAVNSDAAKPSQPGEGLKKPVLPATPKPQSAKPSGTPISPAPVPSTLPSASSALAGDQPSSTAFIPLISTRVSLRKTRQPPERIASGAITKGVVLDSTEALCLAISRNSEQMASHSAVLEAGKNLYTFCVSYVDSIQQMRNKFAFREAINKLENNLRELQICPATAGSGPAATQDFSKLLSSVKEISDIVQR
Sequence of UniProt P22612 (whole entry, looked up): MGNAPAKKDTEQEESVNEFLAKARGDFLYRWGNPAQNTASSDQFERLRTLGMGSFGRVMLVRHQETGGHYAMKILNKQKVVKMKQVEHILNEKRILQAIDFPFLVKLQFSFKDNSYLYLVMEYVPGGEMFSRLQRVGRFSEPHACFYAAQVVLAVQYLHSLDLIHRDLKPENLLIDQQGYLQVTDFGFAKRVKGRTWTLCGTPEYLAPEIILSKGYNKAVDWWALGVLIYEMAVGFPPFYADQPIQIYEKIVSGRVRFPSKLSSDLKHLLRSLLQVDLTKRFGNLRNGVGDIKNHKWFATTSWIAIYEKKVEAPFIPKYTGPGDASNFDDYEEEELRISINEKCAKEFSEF
Sequence of UniProt Q00534 (whole entry, looked up): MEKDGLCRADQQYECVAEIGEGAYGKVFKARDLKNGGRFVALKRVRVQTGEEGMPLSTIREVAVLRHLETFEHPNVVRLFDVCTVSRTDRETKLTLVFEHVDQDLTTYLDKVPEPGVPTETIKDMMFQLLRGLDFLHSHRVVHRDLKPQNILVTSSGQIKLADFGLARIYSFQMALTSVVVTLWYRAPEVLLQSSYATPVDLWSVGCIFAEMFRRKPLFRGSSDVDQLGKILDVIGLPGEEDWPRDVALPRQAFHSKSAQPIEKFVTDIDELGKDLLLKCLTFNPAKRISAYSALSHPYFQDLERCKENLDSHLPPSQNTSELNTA
Sequence of UniProt P54762 (whole entry, looked up): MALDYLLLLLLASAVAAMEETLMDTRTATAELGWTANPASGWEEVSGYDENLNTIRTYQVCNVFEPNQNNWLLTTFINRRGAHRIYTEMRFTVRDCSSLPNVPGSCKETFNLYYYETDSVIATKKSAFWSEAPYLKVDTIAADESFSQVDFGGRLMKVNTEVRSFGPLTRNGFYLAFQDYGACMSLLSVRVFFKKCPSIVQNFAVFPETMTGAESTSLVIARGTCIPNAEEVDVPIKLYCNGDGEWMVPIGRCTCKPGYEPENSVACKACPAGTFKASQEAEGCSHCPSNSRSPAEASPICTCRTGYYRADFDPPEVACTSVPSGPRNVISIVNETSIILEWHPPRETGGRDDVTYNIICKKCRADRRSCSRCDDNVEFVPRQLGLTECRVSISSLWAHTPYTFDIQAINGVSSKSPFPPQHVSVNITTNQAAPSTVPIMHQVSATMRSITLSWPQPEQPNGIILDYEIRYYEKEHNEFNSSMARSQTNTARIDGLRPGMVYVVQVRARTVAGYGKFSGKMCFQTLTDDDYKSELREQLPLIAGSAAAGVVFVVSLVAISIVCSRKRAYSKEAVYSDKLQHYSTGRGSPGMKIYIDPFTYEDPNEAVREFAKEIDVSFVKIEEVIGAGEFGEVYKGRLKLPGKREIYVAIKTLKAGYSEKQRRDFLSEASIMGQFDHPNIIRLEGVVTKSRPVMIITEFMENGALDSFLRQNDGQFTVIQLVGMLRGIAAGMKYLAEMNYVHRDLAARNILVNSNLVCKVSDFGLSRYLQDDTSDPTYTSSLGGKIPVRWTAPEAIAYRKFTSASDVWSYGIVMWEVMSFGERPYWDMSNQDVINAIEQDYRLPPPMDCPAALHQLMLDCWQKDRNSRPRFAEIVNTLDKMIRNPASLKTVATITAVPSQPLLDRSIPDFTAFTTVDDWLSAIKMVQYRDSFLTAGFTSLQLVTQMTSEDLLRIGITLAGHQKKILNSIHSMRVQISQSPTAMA
Sequence of UniProt Q9UK32 (whole entry, looked up): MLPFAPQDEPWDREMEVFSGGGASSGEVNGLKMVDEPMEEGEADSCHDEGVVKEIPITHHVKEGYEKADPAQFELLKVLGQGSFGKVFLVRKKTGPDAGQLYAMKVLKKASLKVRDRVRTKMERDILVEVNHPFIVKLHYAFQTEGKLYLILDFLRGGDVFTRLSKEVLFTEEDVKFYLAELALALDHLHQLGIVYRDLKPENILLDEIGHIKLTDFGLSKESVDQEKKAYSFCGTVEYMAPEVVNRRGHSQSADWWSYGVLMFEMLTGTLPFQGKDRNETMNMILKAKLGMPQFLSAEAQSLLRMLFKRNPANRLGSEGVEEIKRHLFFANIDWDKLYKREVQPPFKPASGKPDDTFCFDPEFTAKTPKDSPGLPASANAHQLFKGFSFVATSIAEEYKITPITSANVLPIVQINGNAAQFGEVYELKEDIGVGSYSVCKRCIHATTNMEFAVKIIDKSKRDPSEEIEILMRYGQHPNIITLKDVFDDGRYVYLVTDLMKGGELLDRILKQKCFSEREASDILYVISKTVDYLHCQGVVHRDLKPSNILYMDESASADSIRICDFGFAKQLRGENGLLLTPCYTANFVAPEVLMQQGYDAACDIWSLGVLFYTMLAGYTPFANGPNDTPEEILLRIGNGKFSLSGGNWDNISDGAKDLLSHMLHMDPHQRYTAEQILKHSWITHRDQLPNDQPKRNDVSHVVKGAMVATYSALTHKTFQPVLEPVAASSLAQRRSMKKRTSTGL
Sequence of UniProt O75716 (whole entry, looked up): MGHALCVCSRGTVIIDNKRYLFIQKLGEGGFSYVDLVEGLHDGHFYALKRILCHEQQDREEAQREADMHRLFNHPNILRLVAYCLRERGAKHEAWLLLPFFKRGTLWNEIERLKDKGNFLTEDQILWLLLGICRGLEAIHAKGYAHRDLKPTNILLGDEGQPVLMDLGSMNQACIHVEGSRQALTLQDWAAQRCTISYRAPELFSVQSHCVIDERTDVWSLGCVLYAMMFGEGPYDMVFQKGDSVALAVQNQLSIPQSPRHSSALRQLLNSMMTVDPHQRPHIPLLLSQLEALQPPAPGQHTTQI

Series 1
Target: Prothrombin, mature alpha-thrombin (F2, Homo sapiens, UniProt P00734)
Technique: aptamer microarray, sandwich
Form: DNA with 2'F-ANA
Sample: in vitro
Tested at: 200 nM
Notes: whole 15-mer aptamer, many near background
With: Cy3 exosite-II aptamer, 400 nM
Direction: higher = stronger binding
Strand: GGTTGGTGTGGTTGG
Modification | mean fluorescence intensity [a.u.]
2'F-ANA at 1 4 5 6 7 11 14 | 52.5
2'F-ANA at 1 3 5 6 7 9 10 12 14 15 | 223
2'F-ANA at 1 2 5 7 10 11 13 14 15 | 80.2
2'F-ANA at 1 2 6 7 9 10 12 15 | 70.5
2'F-ANA at 2 3 5 6 10 11 14 | 64.1
2'F-ANA at 3 4 6 9 10 13 14 | 193
2'F-ANA at 3 4 5 6 9 10 12 14 15 | 53.7
2'F-ANA at 4 13 | 208

Series 2
Target: Histone acetyltransferase KAT6A, both winged helices, GST fusion (KAT6A, Homo sapiens, UniProt Q92794, residues 1-181)
Technique: protein binding microarray
Form: double-stranded DNA, one strand shown
Sample: in vitro
Tested at: not given
Notes: 8-mer, flanks averaged, mean of 2 arrays, mostly near background
Baseline: not given
Direction: higher = stronger binding
Residues (chain): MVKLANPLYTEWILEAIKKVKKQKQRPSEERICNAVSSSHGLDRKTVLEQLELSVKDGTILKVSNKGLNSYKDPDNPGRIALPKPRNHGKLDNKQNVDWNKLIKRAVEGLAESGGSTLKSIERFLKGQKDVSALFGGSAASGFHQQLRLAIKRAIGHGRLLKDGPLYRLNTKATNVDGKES
Strand | E-score
CATGGTAG | -0.0619
CCTCAGGA | -0.202
AAACGTTT | 0.0476
GCTATACC | 0.108
CTACATAG | -0.283
CTGCAGGA | -0.169
GCGGATCA | 0.103
CCAATTGA | -0.188

Series 3
Compound: c1ccc2c(-c3ccncc3)c[nH]c2c1
Observed: enzyme activity
Action: inhibitor
Tested at: 0.5 µM
Baseline: control
target | remaining activity [%]
DYRK3 (Homo sapiens, UniProt O43781) | 101
HIPK2 (Homo sapiens, UniProt Q9H2X6) | 94.1
MAPKAPK3 (Homo sapiens, UniProt Q16644) | 97.8
ABL1 (Homo sapiens, UniProt P00519) | 98.8
CAMK2B (Homo sapiens, UniProt Q13554) | 90.5
EPHB1 (Homo sapiens, UniProt P54762) | 108
EPHA4 (Homo sapiens, UniProt P54764) | 108
RPS6KA5 (Homo sapiens, UniProt O75582) | 96.7
WNK3 (Homo sapiens, UniProt Q9BYP7) | 100
PDPK1 (Homo sapiens, UniProt O15530) | 96.6
Cyclin-dependent kinase 6, with cyclin D3 (CDK6, Homo sapiens, UniProt Q00534) | 101
PRKACG (Homo sapiens, UniProt P22612) | 107
Cyclin-dependent kinase 1, with cyclin B (CDK1, Homo sapiens, UniProt P06493) | 96
Cyclin-dependent kinase 4, with cyclin D3 (CDK4, Homo sapiens, UniProt P11802) | 102
PHKG1 (Homo sapiens, UniProt Q16816) | 90.3
RPS6KA6 (Homo sapiens, UniProt Q9UK32) | 112
TSSK2 (Homo sapiens, UniProt Q96PF2) | 96.9
STK16 (Homo sapiens, UniProt O75716) | 110
HIPK4 (Homo sapiens, UniProt Q8NE63) | 93.8
BLK (Homo sapiens, UniProt P51451) | 99.6

Series 4
Target: Sal-like protein 4, full length isoform A (SALL4, Homo sapiens, UniProt Q9UJQ4, residues 1-1053)
Sequence of UniProt Q9UJQ4 (whole entry, looked up): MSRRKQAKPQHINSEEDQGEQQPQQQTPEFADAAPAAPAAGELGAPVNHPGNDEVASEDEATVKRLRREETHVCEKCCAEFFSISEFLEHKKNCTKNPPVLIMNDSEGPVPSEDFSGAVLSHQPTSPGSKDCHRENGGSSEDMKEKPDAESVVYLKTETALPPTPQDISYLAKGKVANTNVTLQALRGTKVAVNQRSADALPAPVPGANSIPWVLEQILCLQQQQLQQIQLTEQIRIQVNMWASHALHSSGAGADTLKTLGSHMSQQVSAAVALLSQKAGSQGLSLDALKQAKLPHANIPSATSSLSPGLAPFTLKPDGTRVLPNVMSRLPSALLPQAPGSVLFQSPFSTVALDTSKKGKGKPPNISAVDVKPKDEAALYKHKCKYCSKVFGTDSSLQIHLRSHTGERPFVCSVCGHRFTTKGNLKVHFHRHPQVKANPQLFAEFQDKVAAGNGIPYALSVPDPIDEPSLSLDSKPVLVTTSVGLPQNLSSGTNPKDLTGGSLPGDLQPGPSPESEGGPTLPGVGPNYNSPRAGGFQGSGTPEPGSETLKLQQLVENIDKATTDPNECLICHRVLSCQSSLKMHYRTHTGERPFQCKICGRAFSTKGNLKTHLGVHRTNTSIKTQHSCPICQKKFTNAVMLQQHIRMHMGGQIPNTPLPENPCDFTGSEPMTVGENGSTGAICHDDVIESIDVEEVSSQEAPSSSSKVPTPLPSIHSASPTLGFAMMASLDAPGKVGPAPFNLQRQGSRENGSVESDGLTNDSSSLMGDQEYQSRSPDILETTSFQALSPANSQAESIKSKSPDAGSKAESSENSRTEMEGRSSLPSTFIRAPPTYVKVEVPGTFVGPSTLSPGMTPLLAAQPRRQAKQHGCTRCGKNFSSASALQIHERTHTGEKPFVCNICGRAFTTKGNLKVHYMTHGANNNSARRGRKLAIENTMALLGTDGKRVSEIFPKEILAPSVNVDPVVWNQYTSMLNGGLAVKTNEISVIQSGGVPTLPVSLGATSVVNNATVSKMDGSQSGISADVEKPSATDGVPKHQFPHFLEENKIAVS
Technique: universal PBM
Form: double-stranded DNA, one strand shown
Sample: in vitro
Tested at: 600 nM
Notes: 8-mer, flanks averaged, mean of replicates
Direction: higher = stronger binding
Strand | E-score
AGGTGAAT | 0.00568
CACGCATG | -0.194
CATAGTGC | 0.141
CGCCGTTC | -0.23
CCCAAGTA | -0.0428
CCTATATC | 0.198
TATGCCGA | 0.148
GGAGGCTA | -0.274

Single results of other studies
Structure (SMILES) | target | observed | technique | tested at | endpoint | value
Cn1cncc1[C@@](O)(COc1ccc(C#N)cc1-c1ccc(OC(F)(F)F)cc1)c1ccc(C#N)cc1 | Tyrosine-protein kinase ABL1, phosphorylated (ABL1, Homo sapiens, UniProt P00519, E255K) | binding | competition with immobilised ligand | 1 µM | remaining binding | 72%

A few entries again (series 3):
target | remaining activity [%]
CAMK2B (Homo sapiens, UniProt Q13554) | 90.5
MAPKAPK3 (Homo sapiens, UniProt Q16644) | 97.8
RPS6KA6 (Homo sapiens, UniProt Q9UK32) | 112
